{"data": "Published values from different studies", "organism": "Staphylococcus aureus", "note": "Bridge positions count the residues as written; N and C are the ends. Bridges are numbered along the chain shown (N, C = ends). Where no end group is shown, it is not given here. Ends that are not written are not given here. * marks the point of attachment."}
{"Molecule": "CCCCCOc1c(OC)cc(NC(C)CCCNC(=O)C(N)Cc2ccccc2)c2nc(C(C)(C)C)ccc12 (stereo not shown)", "test": "microbial killing", "test system": "ATCC33591 MRSA", "setting": "drug-resistant strain", "measurement": "MBC", "value": "20 µg/mL"}
{"Molecule": "CC[C@H](C)[C@H](NC(=O)[C@H](CCCCN)NC(=O)[C@H](CCC(=O)O)NC(=O)[C@H](CCCCN)NC(=O)[C@H](CO)NC(=O)[C@H](CCCCN)NC(=O)[C@H](CCCNC(=N)N)NC(=O)[C@H](Cc1ccccc1)NC(=O)[C@H](Cc1ccccc1)NC(=O)[C@H](CC(=O)O)NC(=O)CNC(=O)[C@H](CC(C)C)NC(=O)[C@@H](N)CC(C)C)C(=O)NCC(=O)N[C@@H](CCCCN)C(=O)N[C@@H](CCC(=O)O)C(=O)N[C@@H](Cc1ccccc1)C(=O)N[C@@H](CCCCN)C(=O)N[C@@H](CCCNC(=N)N)C(=O)N[C@H](C(=O)N[C@H](C(=O)N[C@@H](CCC(N)=O)C(=O)N[C@@H](CCCNC(=N)N)C(=O)N[C@H](C(=O)N[C@@H](CCCCN)C(=O)N[C@@H](CC(=O)O)C(=O)N[C@@H](Cc1ccccc1)C(=O)N[C@@H](CC(C)C)C(=O)N[C@@H](CCCNC(=N)N)C(=O)N[C@@H](CC(N)=O)C(=O)N[C@@H](CC(C)C)C(=O)N[C@H](C(=O)N1CCC[C@H]1C(=O)N[C@@H](CCCNC(=N)N)C(=O)N[C@H](C(=O)N[C@@H](CCC(=O)O)C(=O)N[C@@H](CO)C(=O)O)[C@@H](C)O)C(C)C)[C@@H](C)CC)C(C)C)[C@@H](C)CC", "test system": "JE2 SAUSA300_1515 transposon mutant", "setting": "12.5% TSB", "how to read": "relative to: wild type over mutant", "measurement": "MIC ratio", "value": "2 fold"}
{"Molecule": "CC[C@H](C)[C@H](NC(=O)[C@@H](NC(=O)CN)C(C)C)C(=O)N[C@@H](Cc1ccccc1)C(=O)N[C@@H](CC(N)=O)C(=O)N[C@@H](C)C(=O)N[C@@H](CC(C)C)C(=O)N[C@@H](CCCCN)C(=O)NCC(=O)N[C@H](C(=O)N[C@@H](C)C(=O)N[C@@H](CCCCN)C(=O)N[C@H](C(=O)N[C@H](C(=O)N[C@@H](C)C(=O)N[C@@H](C)C(=O)N[C@@H](CCC(N)=O)C(=O)N[C@@H](CC(C)C)C(=O)N[C@@H](CC(C)C)C(=O)N[C@@H](CCCCN)C(=O)N[C@@H](CCCCN)C(=O)N[C@@H](C)C(=O)N[C@@H](CCCNC(=N)N)C(N)=O)C(C)C)[C@@H](C)O)C(C)C", "test": "persister cells in biofilm", "test system": "MRSA NCTC 12493", "setting": "with: vancomycin 4 µg/mL", "measurement": "MBEC", "value": "256 µM"}
{"Molecule": "Myristoyl-FCPRRYKQIGTGLPGTKCK (disulfide 2-18 (inferred)) (N-myristoyl, disulfide; Myristoyl = CCCCCCCCCCCCCC(=O)*)", "test system": "ATCC 8530", "setting": "MBC, 2 h, pH 7.4, 37 °C, with: E. coli K-235 LPS at peptide:LPS 1:5 w/w", "measurement": "antibacterial activity", "value": "inhibited"}
{"Molecule": "CC(C)C[C@H](NC(=O)[C@H](CCCCN)NC(=O)[C@H](CCCCN)NC(=O)[C@H](CC(C)C)NC(=O)[C@H](CCCCN)NC(=O)[C@@H](N)CCCNC(=N)N)C(=O)N[C@@H](Cc1c[nH]c2ccccc12)C(=O)N[C@@H](CCCNC(=N)N)C(=O)N[C@@H](CCCCN)C(=O)N[C@@H](Cc1ccccc1)C(=O)N[C@@H](CCCNC(=N)N)C(=O)O", "test": "bacterial killing, colony count", "test system": "ATCC 12600", "setting": "1 h, pH 7, 37 °C", "measurement": "EC50", "value": "0.4 µg/mL"}
{"Molecule": "C[C@H]1c2cccc(O)c2C(=O)C2=C(O)[C@]3(O)C(=O)C(C(N)=O)=C(O)[C@@H](N(C)C)[C@@H]3[C@@H](O)[C@@H]21", "test": "checkerboard broth microdilution", "test system": "ATCC 38591 oxacillin-resistant", "setting": "with: magainin II", "measurement": "FIC index", "value": 1}
{"Molecule": "CCCCCCOc1c(OC)cc(NC(C)CCCNC(=O)C(C)N)c2nc(C(C)(C)C)ccc12 (stereo not shown)", "test": "bacterial growth", "test system": "MRSA ATCC 33591", "measurement": "IC50", "value": "> 20 µg/mL"}
{"Molecule": "CC[C@H](C)[C@H](N)C(=O)N[C@@H](CC(C)C)C(=O)N1CCC[C@H]1C(=O)N[C@@H](Cc1c[nH]c2ccccc12)C(=O)N[C@@H](CCCCN)C(=O)N[C@@H](Cc1c[nH]c2ccccc12)C(=O)N1CCC[C@H]1C(=O)N[C@@H](Cc1c[nH]c2ccccc12)C(=O)N[C@@H](Cc1c[nH]c2ccccc12)C(=O)N1CCC[C@H]1C(=O)N[C@@H](Cc1c[nH]c2ccccc12)C(=O)N[C@@H](CCCNC(=N)N)C(=O)N[C@@H](CCCNC(=N)N)C(N)=O", "test": "broth microdilution", "test system": "methicillin-susceptible clinical isolates, Mueller-Hinton broth", "setting": "18 h, 35 °C", "measurement": "MIC50", "value": "4 µg/mL"}
{"Molecule": "CC(C)C[C@@H](NC(=O)[C@H](C)NC(=O)CNC(=O)[C@@H](NC=O)C(C)C)C(=O)N[C@@H](C)C(=O)N[C@@H](C(=O)N[C@H](C(=O)N[C@@H](C(=O)N[C@@H](Cc1c[nH]c2ccccc12)C(=O)N[C@H](CC(C)C)C(=O)N[C@@H](Cc1c[nH]c2ccccc12)C(=O)N[C@H](CC(C)C)C(=O)N[C@@H](Cc1c[nH]c2ccccc12)C(=O)N[C@H](CC(C)C)C(=O)N[C@@H](Cc1c[nH]c2ccccc12)C(=O)NCCO)C(C)C)C(C)C)C(C)C", "test system": "ATCC 8530", "measurement": "MBC", "value": "2 µM"}
{"Molecule": "CCCCCCOc1c(OC)cc(NC(C)CCCN)c2nc(C(C)(C)C)cc(C)c12 (stereo not shown)", "test": "microbial killing", "test system": "ATCC33591 MRSA", "setting": "drug-resistant strain", "measurement": "MBC", "value": "10 µg/mL"}
{"Molecule": "FFPKVAGVAAKVLKKFCTISKKC (disulfide 17-23 (inferred)) (disulfide)", "test system": "MRSA 12493", "setting": "18 h, 37 °C", "measurement": "MBC", "value": "> 128 µM"}
{"Molecule": "C[C@@H](O)[C@H]1C(=O)N2C(C(=O)O)=C(S[C@@H]3CN[C@H](C(=O)N(C)C)C3)[C@H](C)[C@H]12", "test": "checkerboard broth microdilution", "test system": "ATCC 38591 oxacillin-resistant", "setting": "with: magainin II", "measurement": "FIC index", "value": 0.25}
{"Molecule": "CCCCCCCCOc1c(OC)cc(NC(C)CCCN)c2nc(C(C)(C)C)cc(C)c12 (stereo not shown)", "test": "bacterial growth", "test system": "MRSA ATCC 33591", "measurement": "IC50", "value": "> 20 µg/mL"}
{"Molecule": "vancomycin", "test system": "10, female SHK mice, sepsis", "setting": "intravenous, 30 min after infection, 10 days observation", "measurement": "dose for 100% survival", "value": "6.5 mg/kg"}
{"Molecule": "CCCCCOc1c(OC)cc(NC(C)CCCN)c2nc(C(C)(C)C)ccc12 (stereo not shown)", "test": "microbial growth", "test system": "ATCC33591 MRSA", "setting": "drug-resistant strain", "measurement": "IC50", "value": "8.68 µg/mL"}
{"Molecule": "CC[C@H](C)[C@H](NC(=O)[C@H](C)NC(=O)[C@@H](NC(=O)[C@H](C)NC(=O)CNC(=O)[C@H](CCSC)NC(=O)[C@H](CCC(N)=O)NC(=O)[C@H](CC(C)C)NC(=O)[C@H](CO)NC(=O)[C@@H](N)Cc1ccc(O)cc1)[C@@H](C)O)C(=O)N[C@@H](CCCCN)C(=O)N[C@@H](CCC(N)=O)C(=O)N[C@H](C(=O)N[C@@H](CCCCN)C(=O)N[C@@H](CCCCN)C(=O)N[C@@H](CC(C)C)C(=O)N[C@@H](Cc1ccccc1)C(=O)N[C@@H](CCCCN)C(=O)N[C@@H](CCCCN)C(=O)N[C@@H](CCCCN)C(=O)NCC(=O)NCC(N)=O)C(C)C", "test": "broth microdilution", "test system": "ATCC 25923", "setting": "24 h, 37 °C", "measurement": "MIC50", "value": "19 µM"}
{"Molecule": "eremomycin", "test system": "10, female SHK mice, sepsis", "setting": "intravenous, 30 min after infection, 10 days observation", "measurement": "ED50", "value": "2 mg/kg"}
{"Molecule": "CC[C@H](C)[C@H](NC(=O)[C@@H](NC(=O)CN)C(C)C)C(=O)N[C@@H](Cc1ccccc1)C(=O)N[C@@H](CC(N)=O)C(=O)N[C@@H](C)C(=O)N[C@@H](CC(C)C)C(=O)N[C@@H](CCCCN)C(=O)NCC(=O)N[C@H](C(=O)N[C@@H](C)C(=O)N[C@@H](CCCCN)C(=O)N[C@H](C(=O)N[C@H](C(=O)N[C@@H](C)C(=O)N[C@@H](C)C(=O)N[C@@H](CCC(N)=O)C(=O)N[C@@H](CC(C)C)C(=O)N[C@@H](CC(C)C)C(=O)N[C@@H](CCCCN)C(=O)N[C@@H](CCCCN)C(N)=O)C(C)C)[C@@H](C)O)C(C)C", "test": "persister cells in biofilm", "test system": "MRSA ATCC BAA-1707", "setting": "with: vancomycin 4 µg/mL", "measurement": "MBEC", "value": "256 µM"}
{"Molecule": "CCCCCOc1c(OC)cc(NC(C)CCCNC(=O)C(N)C(C)CC)c2nc(C(C)(C)C)ccc12 (stereo not shown)", "test": "microbial killing", "test system": "ATCC33591 MRSA", "setting": "drug-resistant strain", "measurement": "MBC", "value": "10 µg/mL"}
{"Molecule": "COc1ccc(C2CC(c3ccccc3)=NN2c2ccc(S(N)(=O)=O)cc2)cc1 (stereo not shown)", "test": "bacterial invasion of cells, flow cytometry", "test system": "HUVEC, MSSA ATCC 29213", "measurement": "IC50", "value": "5.4 µM"}
{"Molecule": "CCCCCCCCOc1c(OC)cc(NC(C)CCCNC(=O)C(N)C(C)CC)c2nc(C(C)(C)C)ccc12 (stereo not shown)", "test": "microbial growth", "test system": "ATCC33591 MRSA", "setting": "drug-resistant strain", "measurement": "IC50", "value": "15.3 µg/mL"}
{"Molecule": "CC[C@H](C)[C@H](NC(=O)[C@H](C)NC(=O)[C@@H](NC(=O)[C@H](C)NC(=O)CN)[C@@H](C)O)C(=O)N[C@@H](CCCCN)C(=O)N[C@@H](CCC(N)=O)C(=O)N[C@H](C(=O)N[C@@H](CCCCN)C(=O)N[C@@H](CCCCN)C(=O)N[C@@H](CC(C)C)C(=O)N[C@@H](Cc1ccccc1)C(=O)N[C@@H](CCCCN)C(=O)N[C@@H](CCCCN)C(=O)N[C@@H](CCCCN)C(=O)NCC(=O)NCC(N)=O)C(C)C", "test system": "ATCC 25923", "setting": "24 h, 37 °C", "measurement": "MBC", "value": "> 620 µM"}
{"note": "A few entries again:"}
{"Molecule": "CCCCCCOc1c(OC)cc(NC(C)CCCNC(=O)C(C)N)c2nc(C(C)(C)C)ccc12 (stereo not shown)", "test": "bacterial growth", "test system": "MRSA ATCC 33591", "measurement": "IC50", "value": "> 20 µg/mL"}
